Measurements gathered from unrelated publications.
Lines come from different studies, so protocols differ. Several values in a cell are separate wells, animals, samples, runs or records. ± gives the spread as reported.
Histone acetyltransferase RTT109 with Vps75: Histone acetyltransferase RTT109, with Vps75 (Saccharomyces cerevisiae, UniProt Q07794)

SMILES | target | assay | test system | conditions | endpoint | result
O=C1Nc2c(ccc(Cl)c2Cl)C1=NO | KCNN4/CALM1 (Homo sapiens, UniProt O15554+P0DP23, L185A/S181A) | ion current, activator, whole-cell patch clamp |  |  | EC50 | 1.1 µM
CCn1c(-c2nc3ccc(C(=O)N4CCCC(N)C4)cc3n2C)cc2ccccc21 (centres unmarked) | Alpha-2C adrenergic receptor (ADRA2C, Homo sapiens, UniProt P18825) | agonist, TR-FRET |  |  | EC50 | > 31.6 µM
C[C@H](CCC(C)(C)O)[C@H]1CC[C@H]2[C@@H]3CC=C4C[C@@](C)(O)CC[C@]4(C)[C@H]3CC[C@]12C | Glutamate NMDA receptor; GRIN1/GRIN2A (Homo sapiens, UniProt Q05586+Q12879) | ion current, positive modulator, automated patch clamp | HEK293 (tetracycline-inducible) | no 24(S)-HC, added: glutamate 1 µM and glycine | EC50 | 0.103 µM
CC=C(C#N)C(=O)N1CCC[C@@H](n2nc(-c3ccc(Oc4ccccc4)cc3)c3c(N)ncnc32)C1 | Tyrosine-protein kinase BTK (BTK, Homo sapiens, UniProt Q06187) | target occupancy, PP-BODIPY competition labelling | Ramos | 1 h | EC50 | 0.0147 ± 0.0035 µM
Cn1cnc2ccc(Nc3c(F)ccc(NS(=O)(=O)N4CC(F)C4)c3Cl)c(Cl)c2c1=O | RAF proto-oncogene serine/threonine-protein kinase (RAF1, Homo sapiens, UniProt P04049) | target engagement, isothermal dose-response CETSA, LC-MS | A-375 | 30 min, 37 °C, wild type | EC50 | 0.35 µM
COc1ccc(S(=O)(=O)n2nc(NCc3ccc(Cl)cc3)nc2N)cc1 | Lysophospholipase-like protein 1 (Mus musculus, UniProt Q3UFF7) | enzyme activity, activator, gel-based ABPP |  |  | EC50 | > 20 µM
Cc1ccc(NS(=O)(=O)c2ccc(C(C)(C)C)cc2)cc1Cl | Histone acetyltransferase RTT109 with Vps75 | enzyme activity, inhibitor, HTS, CPM-based, dose response |  |  | IC50 | > 125 µM
CC[C@H](C)[C@H](NC(=O)[C@H](Cc1ccc(OP(=O)(O)O)cc1)NC(=O)[C@H](CC(N)=O)NC(=O)[C@H](CC(C)C)NC(=O)[C@@H](N)CO)C(=O)N[C@@H](CC(=O)O)C(=O)N[C@@H](CC(C)C)C(=O)N[C@@H](CC(=O)O)C(=O)N[C@@H](CC(C)C)C(=O)N[C@H](C(=O)N[C@@H](CCCCN)C(=O)O)C(C)C | Tyrosine-protein phosphatase non-receptor type 11 (PTPN11, Homo sapiens, UniProt Q06124) | phosphatase activity, activator |  | pH 7.0, added: DiFMUP substrate | EC50 | 3.9 ± 0.3 µM
CCCCC[C@H](O)/C=C/[C@H]1[C@H](O)CC(=O)[C@@H]1C/C=C\CCCC(=O)O | Prostaglandin E2 receptor EP1 subtype (PTGER1, Homo sapiens, UniProt P34995, S42A) | IP1 accumulation, agonist | AD293 | EP1 S42A mutant | EC50 | 0.0122 µM
COc1cc(Nc2ncc3c(n2)-c2ccc(Cl)cc2C(c2c(F)cccc2OC)=NC3)ccc1C(=O)NCCOCCOCCNC(=O)COc1cccc2c1C(=O)N(C1CCC(=O)NC1=O)C2=O (centres unmarked) | Acyl-CoA dehydrogenase family member 10 (ACAD10, Homo sapiens, UniProt Q6JQN1) | binding, kinobead competition | MV4-11 cell lysate |  | EC50 | 0.278 µM
Nc1ncnc2c1ncn2[C@@H]1O[C@H](COP(=O)(O)OP(=O)(O)OP(=O)(O)O)[C@@H](O)[C@H]1O | P2X purinoceptor 1 (P2RX1, Homo sapiens, UniProt P51575, K136E/K138D/K140L/R139M) | ion current, agonist, two-electrode voltage clamp |  | 4 | EC50 | 2.68 µM
O=C(Nc1ccc([N+](=O)[O-])cc1Cl)c1cc(Cl)ccc1O | Anoctamin-1 (Ano1, Mus musculus, UniProt Q8BHY3) | ion current, patch clamp | HEK293T |  | EC50 | 1.27 ± 0.02 µM
CCc1c(C)nc(-c2ccc(Cl)s2)nc1Nc1ccc(CC(=O)O)cc1 | 3',5'-cyclic-AMP phosphodiesterase 4B (PDE4B, Homo sapiens, UniProt Q07343) | reporter gene, dual luciferase |  |  | EC50 | 4.27 ± 0.845 µM
CCc1cnc(C)c(C)n1 | Olfactory receptor 5K16 (Or5k16, Mus musculus, UniProt Q7TS48) | cAMP, agonist | HEK293 transfected with Or5k16 |  | EC50 | > 1500 µM
O=C(O)c1cc(Cl)ccc1S(=O)(=O)NCCCCN1C(=O)c2cccc3cccc(c23)C1=O | Lysophosphatidic acid receptor 2 (Mus musculus, UniProt Q9JL06) | agonist, TGFα shedding | transfected HEK293 cells |  | EC50 | ~0.025 µM and 0.025 µM
Cc1nn(-c2nc3c(F)cc(F)cc3s2)c(O)c1C(c1ccccc1C(=O)O)c1c(C)nn(-c2nc3c(F)cc(F)cc3s2)c1O | Cyclic GMP-AMP synthase, catalytic domain; with DNA (CGAS, Homo sapiens, UniProt Q8N884) | cGAS phase separation, inhibitor |  |  | EC50 | 1.01 µM and 1.46 µM
CC(C)(C)c1ccc(S(=O)(=O)Nc2cccc(Cl)c2)cc1 | Histone acetyltransferase RTT109 with Vps75 | enzyme activity, inhibitor, HTS, CPM-based, dose response |  |  | IC50 | > 125 µM

A few entries again:
SMILES | target | assay | test system | conditions | endpoint | result
CC(C)(C)c1ccc(S(=O)(=O)Nc2cccc(Cl)c2)cc1 | Histone acetyltransferase RTT109 with Vps75 | enzyme activity, inhibitor, HTS, CPM-based, dose response |  |  | IC50 | > 125 µM
